{"data": "Results of several laboratories", "effect on": "metabolic stability", "note": "Protocols differ between the studies behind these lines."}
{"SMILES": "NC[C@@H](C(=O)Nc1ccc(-c2cn[nH]c2)cc1)c1ccccc1", "species": "human", "medium": "liver microsomes", "microsomal CLint [µL/min/mg]": 8.56}
{"SMILES": "CNC(=O)C1CCN(c2cc(C)ccc2NC(=O)c2ccc(-c3cc(O)ccc3C)c(C)c2)CC1", "species": "human", "medium": "liver microsomes", "concentration": "2 µM", "microsomal CLint [µL/min/mg]": 12}
{"SMILES": "O=C(CS(=O)(=O)Cc1ccco1)C12CC3CC(CC(C3)C1)C2", "species": "human", "medium": "liver microsomes", "microsomal CLint [µL/min/mg]": "< 3"}
{"SMILES": "CCCCCCCCN(CCC(=O)Nc1ccccc1)C(=O)c1ccccn1", "species": "male human", "medium": "liver microsomes", "concentration": "5 µM", "microsomal CLint [µL/min/mg]": 40}
{"SMILES": "CCn1cc(C(=O)NCCNCCO)c(=O)c2cc(OCc3ccc(C(F)(F)F)cc3)c(C(F)(F)F)cc21", "species": "human", "medium": "liver microsomes", "concentration": "1 µM", "microsomal CLint [µL/min/mg]": "< 11.6"}
{"SMILES": "O=C(C1CCN(c2nnnn2-c2ccc(N3CCCC3)cc2)CC1)N1CCCc2ccccc21", "species": "human", "medium": "liver microsomes", "concentration": "1 µM", "microsomal CLint [µL/min/mg]": "> 400"}
{"SMILES": "CNC(=O)c1cc(C)ccc1NC(=O)c1ccc(-c2cc(O)ccc2C)c(C)c1", "species": "human", "medium": "liver microsomes", "concentration": "2 µM", "microsomal CLint [µL/min/mg]": 3}
{"SMILES": "COc1nc2[nH]c(C(F)(F)F)nc2nc1Nc1ccc(OC(F)(F)F)cc1F", "species": "human", "medium": "hepatocytes", "concentration": "1 µM", "microsomal CLint [µL/min/mg]": "< 8.2"}
{"SMILES": "COc1cc(O)c(-c2cc(-c3cc(-c4c(O)cc(OC)c5c4C[C@@H](C)N[C@@H]5C)c4cc(C)cc(OC)c4c3O)c(O)c3c(OC)cc(C)cc23)c2c1[C@@H](C)N[C@H](C)C2", "species": "human", "medium": "liver microsomes", "concentration": "1 µM", "microsomal CLint [µL/min/mg]": "< 11.6"}
{"SMILES": "NC(=O)c1c(F)ccc(OCc2nc3cc(Cl)cnc3s2)c1F", "species": "human", "medium": "liver microsomes", "concentration": "10 µM", "microsomal CLint [µL/min/mg]": 7.2}
{"SMILES": "CC12CC3CC(C1)CC(NC(=O)NC1CCC(Oc4ccc(C(=O)O)cc4)CC1)(C3)C2 (centres unmarked)", "species": "human", "medium": "liver microsomes", "microsomal CLint [µL/min/mg]": 13}
{"SMILES": "Cc1cc(N2CCC(CO)(C3CC3)C2=O)cc(C(=O)NCc2cc(F)cc(-c3cnn(C)c3)c2)n1 (centres unmarked)", "species": "human", "medium": "liver microsomes", "concentration": "0.5 µM", "microsomal CLint [µL/min/mg]": 41}
{"SMILES": "COC(=O)c1ccc2c(c1)NC(=O)/C2=C(\\Nc1ccc2c(c1)CCN2C(=O)CN1CCOCC1)c1ccccc1", "species": "human", "medium": "liver microsomes", "concentration": "10 µM", "pH": "pH 7.4", "microsomal CLint [µL/min/mg]": 90}
{"SMILES": "Cc1cc(N2CCC(C#N)(C3(C)CC3)C2=O)cc(C(=O)NCc2cc(F)cc(-c3cnn(C)c3)c2)n1 (racemic)", "species": "human", "medium": "liver microsomes", "concentration": "0.5 µM", "microsomal CLint [µL/min/mg]": 55}
{"SMILES": "O=C(NCCNCCO)c1cn(Cc2ccc(F)cc2)c2cc(Cl)c(OCc3ccc(C(F)(F)F)cc3)cc2c1=O", "species": "human", "medium": "liver microsomes", "concentration": "1 µM", "microsomal CLint [µL/min/mg]": "< 11.6"}
{"SMILES": "CNC(=O)C1CCN(c2ccccc2NC(=O)c2ccc(-c3c(C)ccc4[nH]ncc34)c(C)c2)CC1", "species": "human", "medium": "liver microsomes", "concentration": "2 µM", "microsomal CLint [µL/min/mg]": 18}
{"SMILES": "CCn1cc(C(=O)NCCNCCO)c(=O)c2cc(OCc3ccc(C(C)(C)C)cc3)c(Cl)cc21", "species": "human", "medium": "liver microsomes", "concentration": "1 µM", "microsomal CLint [µL/min/mg]": "< 11.6"}
{"SMILES": "Cc1ccc(N2C(=O)c3ccccc3NC23C(=O)N(C)c2ccc(Br)cc23)cc1 (centres unmarked)", "species": "human", "medium": "liver microsomes", "microsomal CLint [µL/min/mg]": "> 300"}
{"SMILES": "[2H]c1c(NS(C)(=O)=O)c([2H])c2c(C(=O)c3ccc(OCCCN(CCCC)CCCC)cc3)c(CCCC)oc2c1[2H]", "species": "human", "medium": "liver microsomes", "concentration": "1 µM", "microsomal CLint [µL/min/mg]": 13.5}
{"SMILES": "C[N+]1(CC(=O)OC2CCCCCCCCCCC2)CCCCC1", "species": "human", "medium": "liver microsomes", "microsomal CLint [µL/min/mg]": 404}
{"note": "For quick reference, copied from above:"}
{"SMILES": "CCn1cc(C(=O)NCCNCCO)c(=O)c2cc(OCc3ccc(C(F)(F)F)cc3)c(C(F)(F)F)cc21", "species": "human", "medium": "liver microsomes", "concentration": "1 µM", "microsomal CLint [µL/min/mg]": "< 11.6"}
